Assay results from different studies.
Numbered parts are unrelated; each lists some results of a single study. Changes are numbered by the printed parent chain.

Block 1
Target: CCNB3, cyclin fold, Cln2 fusion (human)
Method: yeast growth competition, sequencing
Medium: yeast
Notes: weak parent motif
Relative to: not given
Direction: higher = stronger binding
Starting sequence: CDKN1B docking peptide (human); PSACRNLFGPVDH; partner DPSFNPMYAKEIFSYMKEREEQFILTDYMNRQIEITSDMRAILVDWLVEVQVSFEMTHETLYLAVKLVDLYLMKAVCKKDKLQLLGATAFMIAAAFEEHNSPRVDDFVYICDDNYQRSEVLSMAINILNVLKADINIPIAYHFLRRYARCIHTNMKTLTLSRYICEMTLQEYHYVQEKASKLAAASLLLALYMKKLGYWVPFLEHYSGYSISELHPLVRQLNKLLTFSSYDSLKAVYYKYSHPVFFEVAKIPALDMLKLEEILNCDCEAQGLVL
Change | normalised enrichment score
PSACRNLFGPVPH [D12P] | 0.306
PSACTNLFGPVDH [R5T] | 0.0597
ISACRNLFGPVDH [P1I] | 0.173
PSACRHLFGPVDH [N6H] | 0.118
YSACRNLFGPVDH [P1Y] | 0.437
PSACRKLFGPVDH [N6K] | 0.743
PSACRNLFLPVDH [G9L] | 0.393
PSACKNLLGPVDH [R5K F8L] | 0.23
PSACRNPFGPVDH [L7P] | -0.0301
PSMCRNLFGPVDH [A3M] | 1
PSACRNLFGPIDH [V11I] | 0.741
PCACRNLFGPVDH [S2C] | 0.45
PSAPRNLFGPVDH [C4P] | 0.302
PSACRNLFGPFDH [V11F] | 0.41
PSACRNEFGPVDH [L7E] | 0.00697
PSACRNLFGQVDH [P10Q] | 0.407
PSACSNLFGPVDH [R5S] | 0.232
FSACRNLFGPVDH [P1F] | 0.593

Block 2
Target: ABI1, truncated, D143A, DHFR fusion (Arabidopsis thaliana)
Method: DHFR PCA, deep sequencing
Medium: yeast
Notes: methotrexate growth selection, single substitutions
Together with: (+)-ABA 0.11 µM
Relative to: wild-type fitted maximum
Direction: higher = stronger binding
Starting sequence: PYL1, truncated, DHFR fusion (Arabidopsis thaliana); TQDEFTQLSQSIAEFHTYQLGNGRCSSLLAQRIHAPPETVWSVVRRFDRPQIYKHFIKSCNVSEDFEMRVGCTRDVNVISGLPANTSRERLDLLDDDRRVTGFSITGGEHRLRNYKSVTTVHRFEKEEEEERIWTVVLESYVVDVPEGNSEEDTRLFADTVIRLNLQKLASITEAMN; partner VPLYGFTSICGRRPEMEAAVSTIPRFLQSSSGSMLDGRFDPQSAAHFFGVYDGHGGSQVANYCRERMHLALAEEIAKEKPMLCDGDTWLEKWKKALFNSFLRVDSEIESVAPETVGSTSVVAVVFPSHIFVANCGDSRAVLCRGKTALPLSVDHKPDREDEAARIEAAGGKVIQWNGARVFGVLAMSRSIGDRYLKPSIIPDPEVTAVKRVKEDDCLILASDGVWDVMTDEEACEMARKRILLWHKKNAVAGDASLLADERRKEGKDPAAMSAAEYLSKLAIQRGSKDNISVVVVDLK
Change | relative binding score [%]
T39V | 56.1
S27I | -4.7
V145H | -1.84
Y18T | -0.367
F124E | 9.17
R99S | -2.34
L93F | 8.96
S26G | 26
L112Y | 3.16
A30F | 26.1
H110T | 50.1
T119N | -3.79
S150C | 18.7
N85G | 29.9
N61K | 61.2
E127T | 35.1
R163E | 6.92
T86N | 35.7
Y18A | 2.08
K126M | 42.8
L28I | 65.2
D3C | 15.4
S42A | 36.5
I57F | -0.424
H34A | 42.3

Block 3
Target: FOSL2, bZIP domain (human)
Method: DHFR protein complementation
Medium: yeast
Notes: single substitutions, most at no-binding floor
Relative to: wild-type JUN-FOS pair
Direction: higher = stronger binding
Starting sequence: JUN, bZIP domain (human); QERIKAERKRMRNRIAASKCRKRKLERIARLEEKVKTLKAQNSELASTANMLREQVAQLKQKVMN; partner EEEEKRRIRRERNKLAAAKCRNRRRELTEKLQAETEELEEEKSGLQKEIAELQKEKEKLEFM
Change | binding fitness
M51H | 0.0836 natural log
L45H | -0.832 natural log
K34P | -1 natural log
V56A | -1.2 natural log
L52I | -0.157 natural log
T37V | 0.0736 natural log
L52D | -1.43 natural log
R53P | -1.43 natural log
M51E | 0.0852 natural log
Q41S | -1.45 natural log
V56S | -0.983 natural log
L45K | -1.15 natural log
R53S | -0.414 natural log
T48H | 0.0617 natural log
Q55A | 0.108 natural log
S47Y | -0.0709 natural log

Block 4
Target: UBE2E1 UBC core domain (UniProt P51965)
UniProt P51965, sequence (whole entry, looked up): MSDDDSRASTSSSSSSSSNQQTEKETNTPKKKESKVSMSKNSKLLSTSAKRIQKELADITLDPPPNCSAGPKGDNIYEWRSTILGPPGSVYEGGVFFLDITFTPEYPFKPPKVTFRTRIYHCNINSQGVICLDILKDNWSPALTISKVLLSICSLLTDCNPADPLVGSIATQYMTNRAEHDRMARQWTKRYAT
Method: yeast two-hybrid
Medium: yeast
Notes: mostly zero background
Relative to: not given
Direction: higher = stronger interaction
B1: PEX2 RING domain (UniProt P28328); chain DNTLATSGKECALCGEWPTMPHTIGCEHIFCYFCAKSSFLFDVYFTCPKCGTEVHSLQPLK
B2: RNF4 RING domain (UniProt P78317); chain TGLRPSGTVSCPICMDGYSEIVQNGRLIVSTECGHVFCSQCLRDSLKNANTCPTCRKKINHKRYHP
B3: PHF7 RING domain (UniProt Q9BWX1); chain IQHGHVGEESCILCCEDLSQQSVENIQSPCCSQAIYHRKCIQKYAHTSAKHFFKCPQCNNRKEFPQEML
B4: RNF32 RING domain (UniProt Q9H0A6); chain SLLQGDSVQPCPICKEEFELRPQVLLSCSHVFHKACLQAFEKFTNKKTCPLCRKNQYQTRVIH
B5: ANKIB1 RING domain (UniProt Q9P2G1); chain LSPGDLDTSLCDICMCSISVFEDPVDMPCGHDFCRGCWESFLNLKIQEGEAHNIFCPAYDCFQLVPVDIIE
B6: RNF150 RING domain (UniProt Q9ULK6); chain DKETESDFDNCAVCIEGYKPNDVVRILPCRHLFHKSCVDPWLLDHRTCPMCKMNILKALGIP
B7: TRIM10 RING domain (UniProt Q9UDY6); chain SVTSLADEVNCPICQGTLREPVTIDCGHNFCRACLTRYCEIPGPDLEESPTCPLCKEPFRPGSFRP
B8: RNF14 RING domain (UniProt Q9UBS8); chain IKCFNSKLFLCSICFCEKLGSECMYFLECRHVYCKACLKDYFEIQIRDGQVQCLNCPEPKCPSVATPGQVK
B9: RNF5 RING domain (UniProt Q99942); chain ERGGAGATFECNICLETAREAVVSVCGHLYCWPCLHQWLETRPERQECPVCKAGISREKVVP
Sequence | lacZ reporter activity
KIKDLNEHIVCCLCAGYFVDATTITECLHTFCKSCIVKYLQTSKYCPMCNIKIHETQPLL (PCGF1 RING domain (UniProt Q9BSM1)) | 0
LKQVSIRENCCSLCCDEVADTQLKPCGHSDLCMDCALQLETCPLCRKEIVSRIRQI (RSPRY1 RING domain (UniProt Q96DX4)) | 0
B1 (PEX2 RING domain) | 0
B2 (RNF4 RING domain) | 3140
B3 (PHF7 RING domain) | 0
B4 (RNF32 RING domain) | 0
FLKKLEQSFMCVCCQELVYQPVTTECFHNVCKDCLQRSFKAQVFSCPACRHDLGQNYIMI (UHRF2 RING domain (UniProt Q96PU4)) | 0
B5 (ANKIB1 RING domain) | 0
B6 (RNF150 RING domain) | 8330
QLQDEEDDSLCRICMDAVIDCVLLECGHMVTCTKCGKRMSECPICRQYVVRAVHVF (RNF34 RING domain (UniProt Q969K3)) | 0
B7 (TRIM10 RING domain) | 0
B8 (RNF14 RING domain) | 0
MANWVFCNRCFQPPHRTSCFSLTNCGHVYCDACLGKGKKNECLICKAPCRTVLLSK (RNF212 RING domain (UniProt Q495C1)) | 0
B9 (RNF5 RING domain) | 0
SYEDKSNDFVCPICFDMIEEAYMTKCGHSFCYKCIHQSLEDNNRCPKCNYVVDNIDHLY (COP1 RING domain (UniProt Q8NHY2)) | 0

Block 5
Target: RNA binding protein fox-1 homolog 2, RRM domain, GST-SBP tag (RBFOX2, Homo sapiens, UniProt O43251-10, residues 100-194)
Method: RNA Bind-n-Seq
Form: RNA
Medium: in vitro
Concentration: 365 nM
Notes: natural RNA segment, single round, ends assumed
Relative to: no-protein control
Direction: higher = stronger binding
All sequences stand within: GGGAGUUCUACAGUCCGACGAUC … UGGAAUUCUCGGGUGCCAA
Residues (chain): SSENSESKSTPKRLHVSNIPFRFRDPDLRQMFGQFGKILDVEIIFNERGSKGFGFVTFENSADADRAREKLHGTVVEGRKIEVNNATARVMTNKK
Sequence | RBNS enrichment (R)
UAUUAGAGCCCAUCCUGGAGCCCCACCUCUGAACCACCUCCUACCAGCUGUCCCUCAGGCUGGGGGAAAACAGGUGUUUGAUUUGUCACCGUUGGAGCUUGGAUAUGUGC | 0.437
UACCGACAUUCCCCCAAGUUGUCCUCUAACCUCCACAUGUGUGCUGUGGUAUGUGUGUUCUCACGUGUGUGUGCACAUACACACACACACGCAUAUCAAUUAAUUUAAAA | 0.646
GCCCAGGGUCUAGGGUGUGCACUGGGCAAGGGCAGGGCGGCAGGUGUCAGGCCGGCUUGGACAAUGAAACCCUGACCUUGCUGCAUUCCUUUUGCUUCCACCACCACUAG | 0.596
GCGAAAAUCCCGAUCACAUUGGACAUCGGCAAAGGCGUGCCAUAAAGAGCGGCCCACAGUCAUGCUACUCCCAUUUAGGAACAUGGGCUUACCAGCUCAAGACUUAUCUA | 0.358
UCAGGGUCCUCUGAAAGUUACCCAGGGCUCUCAUCUACUUCCCUAGAGCUUGCAGUGUAAAGUGACAGCUAGUGUGCUCCCUCUCUCCCUCCCUCCCCCUCCUCUCCUCU | 0.714
GUAGGAUCCUCUGCAGAUUUCCACUGCUGUCCCUGGCCAGAGUGCAGGAACCAGAGGACCCAGAGAAGGCGGUGGGGACCCAGCCUGGCGCCAGGGAGUGUGCCCCCAAU | 0.338
GUGUAUUUUAGAAAUUACCUGAAGUGAAGCUAUCACGAAGUGAGUGUAUCACCUGGUGAGCGAGUGACUGAAACCUGCUCUGGUCUGGGUUUGACCAGGUUAGGACUAUU | 0.24
GAAGUCCAACUCAAGUCGGAGAGAGAGUGGAGCCUCUGCACUUGGGGAGUAGGUCAGUGUCAACUAACAAGCCCUGCCAGGGGCCACUGCCGCUCCUCUGGUCACAGUCC | 0.231
UAAAACCAUUCAGGGUAAUUUUUCUUGUCAGUGGCCAGUGGCAUCCCUGACCUCCAGAAAGAAGCCAUGCAGUAUAAACUCCUUGUGGUGAACAAGUCUGUUCAUGGCAA | 0.583
GGCCCUGCAAAAGGACUCUCAGGACCAAAGCUUUCAUGUAAACUGUGCACCAAGCAGGAAAUGAAAAUGUCUUGUGUUACCUGAAAACACUGUGCACAUCUGUGUCUUGU | 0.353
AUAGAGGAAGUGGAUAAAGGAGACACCUCCCUUGCUGUGUGCUCUUUGAAAGUAAUUGACAGAAAACUACAAACACGUAGGAUGCCCUGCGCCUCAGCAGCACCCACCCC | 0.445
GGGCUCAAUCUGGGCAAUGACCCCGACCGAGGCACGUCCAUUGAGCAGCAGACAGCUCCGCCCAUCCUAGGACUCCCCCAAAGGAGCAACUGUAAUGUGGGACUAACAUG | 0.401

Some of these lines once more (block 3):
Change | binding fitness
R53P | -1.43 natural log
V56A | -1.2 natural log
V56S | -0.983 natural log
L52D | -1.43 natural log
L45K | -1.15 natural log
L52I | -0.157 natural log
Q55A | 0.108 natural log
T48H | 0.0617 natural log
M51H | 0.0836 natural log
Q41S | -1.45 natural log
R53S | -0.414 natural log
M51E | 0.0852 natural log
T37V | 0.0736 natural log
K34P | -1 natural log
